Assay results pooled from the literature.
Every numbered part comes from another study and shows a few of its results, in no order.

Set 1
Target: Centromere-binding protein 1, full length, His-tagged (CBF1, Saccharomyces cerevisiae, UniProt P17106, residues 1-351)
UniProt P17106, sequence (whole entry, looked up): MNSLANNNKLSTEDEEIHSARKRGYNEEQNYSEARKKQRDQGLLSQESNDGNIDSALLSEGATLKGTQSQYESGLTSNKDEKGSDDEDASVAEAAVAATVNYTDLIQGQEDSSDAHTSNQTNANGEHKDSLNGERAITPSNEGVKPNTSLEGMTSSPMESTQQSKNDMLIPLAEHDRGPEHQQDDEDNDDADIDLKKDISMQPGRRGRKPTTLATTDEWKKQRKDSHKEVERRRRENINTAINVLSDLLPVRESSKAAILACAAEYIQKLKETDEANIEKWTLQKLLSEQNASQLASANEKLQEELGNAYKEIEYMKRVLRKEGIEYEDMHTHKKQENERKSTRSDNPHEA
Method: competition protein-binding microarray
Molecule type: double-stranded DNA, one strand shown
Matrix: in vitro
Tested at: 2 µM
Setting: whole 60-bp probe, lowest competitor level
Together with: Pho4 competitor, 0.05 µM
Reading: higher = stronger binding
Constant ends, left off below: … GTCTTGATTCGCTTGACGCTGCTG
For `CGTAACCAGACGAGTCACGTGTAATTTTGTAACTCA`, the fluorescence intensity was 8970 a.u.
`AAATTACTAAGTTGGCTAGTGGGTGACGCCGTATGA` gave a fluorescence intensity of 81.5 a.u.
`TTCAGCAAACGGCAGCATGTGAAAAAACCCGTAGAA` gave a fluorescence intensity of 95.5 a.u.
For `AAAGCGGTAATTTGGGCAGTGGGTGCAGATATCTAT`, the fluorescence intensity was 78.4 a.u.
`CGGGGTTAAGTTTGTCACTCGACTTGCTTGCAGCAG` gave a fluorescence intensity of 53.3 a.u.
With `ACTCGGCTAGGTATCCCCGTGGATTTTTACCCAACA` the fluorescence intensity was 75.9 a.u.
With `TGGAAGTGTGTGAATTTCGTGATGGAATTATTGTCA` the fluorescence intensity was 103 a.u.
For `TAGATCCCTGTCCGTCACCTGAGTGTCCGTTTCAGG`, the fluorescence intensity was 108 a.u.
`GGAGACGTCGCCTTTCTCGTGAAGGCTGGCGGGGTA` has a fluorescence intensity of 70.7 a.u.
For `ATATTTTGGTAGCGCCGCGTGGGTAACAATGCAGTA`, the fluorescence intensity was 143 a.u.
The fluorescence intensity of `AAAAGAAACAAAGCAAGCGTGCCGAGACTTAGGGTT` is reported as 62.3 a.u.
`TTAAGTCTATTATCAAGCATGATAACCATCATCAAT` has a fluorescence intensity of 102 a.u.
With `CATACCCAACCTTTTCACGTGCTATAAGATATTTGT` the fluorescence intensity was 1500 a.u.
`TCGCAGATGCCATATCCCGTGCCAGATATACTATAA` has a fluorescence intensity of 242 a.u.
`GTCTTGTCTCATTGGAGAGTGGGTGTCCCCACTTCA` gave a fluorescence intensity of 100 a.u.
`CGTCCTAGTGATTTTCACGTGGTCTCCATGAGGAAG` has a fluorescence intensity of 1580 a.u.
For `CTAACGAAGGTTTTTCACGTGAAATACAAGCCAAGT`, the fluorescence intensity was 914 a.u.
With `TGAAAAATTTTCGGTAGCGTGCTTTAGCCGGTATAA` the fluorescence intensity was 81.4 a.u.
The fluorescence intensity of `CATACCCAACCTTGACTGGTGGGTGAAGATATTTGT` is reported as 62.4 a.u.

Set 2
Target: Histone acetyltransferase KAT6A, winged helix 1, GST fusion (KAT6A, Homo sapiens, UniProt Q92794, residues 1-85)
Method: protein binding microarray
Molecule type: double-stranded DNA, one strand shown
Matrix: in vitro
Tested at: not given
Setting: 8-mer, flanks averaged, mean of 2 arrays, mostly near background
Reference: not given
Reading: higher = stronger binding
Target sequence (chain): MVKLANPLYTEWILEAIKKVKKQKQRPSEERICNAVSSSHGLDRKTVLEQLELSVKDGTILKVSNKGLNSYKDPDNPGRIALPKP
The E-score of `AAATACGT` is reported as -0.204.
`AAAAAAAC` has an E-score of -0.101.
`TAAGGGTA` gave an E-score of -0.0594.
The E-score of `ATGCCAAG` is reported as -0.255.
For `CGGGGGAC`, the E-score was 0.302.
`ACGAGGCA` gave an E-score of -0.178.
For `ATGAGCCG`, the E-score was 0.0531.
For `ACGCCGGC`, the E-score was 0.424.
The E-score of `CCTGACCC` is reported as 0.0485.
`AGTTGTCC` has an E-score of -0.103.
`AACGTGCT` gave an E-score of -0.202.
For `GTGGGCTA`, the E-score was -0.194.
The E-score of `GTACTGGA` is reported as -0.0825.
For `AATCAGTG`, the E-score was -0.233.
With `ATCGCATA` the E-score was 0.0407.
`ACTTGGAA` gave an E-score of -0.23.
With `ATGAGGAC` the E-score was -0.0507.
With `CACGTCAG` the E-score was -0.174.
`CTCATACC` gave an E-score of -0.19.
The E-score of `TGAGCAAA` is reported as -0.178.
The E-score of `AAGCAAGA` is reported as -0.158.
With `ATTTCCTC` the E-score was -0.172.
For `ACGAGGCC`, the E-score was 0.00272.
`CTGAGCAA` gave an E-score of -0.261.

Set 3
Target: Ras GTPase-activating protein-binding protein 1, full length (G3BP1, Homo sapiens, UniProt Q13283)
UniProt Q13283, sequence (whole entry, looked up): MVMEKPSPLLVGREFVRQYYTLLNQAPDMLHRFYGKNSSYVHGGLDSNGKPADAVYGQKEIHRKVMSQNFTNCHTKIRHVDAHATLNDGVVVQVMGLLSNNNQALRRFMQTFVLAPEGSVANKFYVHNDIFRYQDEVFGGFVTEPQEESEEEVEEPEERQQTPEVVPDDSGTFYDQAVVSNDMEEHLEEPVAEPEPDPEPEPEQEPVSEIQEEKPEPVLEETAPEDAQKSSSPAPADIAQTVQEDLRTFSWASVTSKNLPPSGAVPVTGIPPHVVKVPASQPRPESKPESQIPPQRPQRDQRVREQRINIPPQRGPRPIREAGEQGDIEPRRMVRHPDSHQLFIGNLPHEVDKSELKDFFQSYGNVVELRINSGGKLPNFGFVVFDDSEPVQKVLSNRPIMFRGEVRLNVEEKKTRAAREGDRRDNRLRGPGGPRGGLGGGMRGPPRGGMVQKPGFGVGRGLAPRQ
Method: RNA Bind-n-Seq
Molecule type: RNA
Matrix: in vitro
Tested at: 200 nM
Setting: whole 134-nt RNA, ends assumed
Together with: 150 mM LiCl
Reference: input library
Reading: higher = stronger binding
Library: 7-deaza-guanosine replaces G
Constant ends, left off below: GGGAGUUCUACAGUCCGACGAUC … UGGAAUUCUCGGGUGUCAAGG
`CCUGUGCUACACAUCGUAUGUACCGAAUCGGCCCCCCCGGGGCCCCCCCGGCCCCCCCGGAAAGUAUUAUGUUACGCCGUUCGGAUCUGC` has a log2 enrichment of 0.11.
The log2 enrichment of `UGGCCCUGGUGGCAUGCGGGGAGGAAGAGGUGGCCUCAUGGAUCGUGGUGGUCCCGUUGGAAUGUUCAGAGGUGGCCGUGGUGGAGACAG` is reported as 0.479.
`CUGUGCUACACAUCGUAUGUACCGAAUCGGGGAAAGGGGUUUUUUUGGGGUUUUUUUGGGGAAAGUAUUAUGUUACGCCGUUCGGAUCUG` has a log2 enrichment of 0.0311.
`CUGUGCUACACAUCGUAUGUACCGAAUCGGCCCCCCCGGGGCCCCCCCGGGCCCCCCCGGGAAAGUAUUAUGUUACGCCGUUCGGAUCUG` gave a log2 enrichment of -1.2.
`GAGUCCGGUUCGUGUUCGUCCGCGGAGAUCUCUCUCAUCUCGCUCGGCUGCGGGAAAUCGGGCUGAAGCGACUGAGUCCGCGAUGGAGGU` has a log2 enrichment of -1.04.
With `CACAGACAACACGCACCCACACAGACACAGAGGGAAGGGGUUGGGAUGGGGACAGUGUGCACAGCAGGGCGGGGUAGGACCCCAGCCCCU` the log2 enrichment was -0.305.
The log2 enrichment of `UGGCCCUGGUGGCAUGCGGGGAGUAAGAGGUGGCCUCAUGGAUCGUGGUGGUCCCGGUGGAAUGUUCAGAGGUGGCCGUGGUGGAGACAG` is reported as 0.487.
`ACCAUGCAGGUGGGCAAAAUUGGGAAGUGGGGCAAGGGGGGGAUAGGGAGGGGGGUAACACUUUGGGAACAGGUGGUCCCAGGUCGUUUC` gave a log2 enrichment of 0.0949.

Set 4
Target: RNA binding protein fox-1 homolog 2, RRM domain, GST-SBP tag (RBFOX2, Homo sapiens, UniProt O43251-10, residues 100-194)
Method: RNA Bind-n-Seq
Molecule type: RNA
Matrix: in vitro
Tested at: 365 nM
Setting: natural RNA segment, single round, ends assumed
Reference: no-protein control
Reading: higher = stronger binding
Constant ends, left off below: GGGAGUUCUACAGUCCGACGAUC … UGGAAUUCUCGGGUGCCAA
Target sequence (chain): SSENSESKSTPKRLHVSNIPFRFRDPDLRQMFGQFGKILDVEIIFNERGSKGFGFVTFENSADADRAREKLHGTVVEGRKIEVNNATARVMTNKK
`UUUAUACCAAGAGAUUCUUCUAGAUCUCAUUGAUCCUUUUGAAGAGCUUUUUCUAUAUUAGGAUAUCAGAAUUGUUCAACUUUUCACUCUAUAGACUGUUUUAAGAGUUU` — result for “RBNS enrichment (R)”: 0.475.
`GUUGGGGGCCCCCGACCCACCAUACCUACGCCUAGGGAGCCCGUCCUCCAGUAUUCCGUCUGUAGCAGGAGCUAGGGCUGCUGCCUCAGCUCCAAGACAAGAAUGAACCU`: “RBNS enrichment (R)” 0.438.
For `AUGUGUAGUGUUGAUUGACACAUUAAGACUAGCAGUCUUUAAUCCUGCCACUUUAUUGAGGUGUUAUUAGCACUUUUGUUCAUAAUUCAUAAUUUUGUAAUAAUCUUUAU`, “RBNS enrichment (R)” read 0.616.
`CCAAAUGCCUCCUGCUUCUCGUUAUAGGACUGAGUGAGGUCCUCAUAGCUCUGUGCUCUGGGCAGCUCUGAGCUCUCAGCCCUGUUGCUUUCAAUGUCAGUCACAGAGUG`: “RBNS enrichment (R)” 0.404.
For `ACCCUGGCUCAAGUUCCAGCACUGGAAAGACCAAAGUGCAAACGUGCAUGGGAGGAGUGAGGGUAACAGAGGCCAUGGCGUACGUCUUCCUUUGCAGCUAGGGAAAGAGA`, “RBNS enrichment (R)” read 1.3.
Under “RBNS enrichment (R)”, `UUCGCACAUUUAAGCAUCUUUGUUUUACAUAAAAUUAGAGUAUGAAAACCAGUGUUCAAUUUUUUAUCUUGUUGAGCUUGUAAAAUGCCAGCAAUUUAAAACUAGGACUU` is recorded as 0.368.
Under “RBNS enrichment (R)”, `UGUGAUGUCUAACUCUGCAUAGCCUUUUCUCUUCAUAUCUGCGGCCUAUCUUUUCCCCUUACAUAUGUCUUUGUCCUUCUUUCCCAAAGAUGUCAAAUACAAUGCAGCAU` is recorded as 0.592.
For `GAAAUAUUGUGAUGCCCACCACGUCUGUAUUUCUUCUCUACUCCCCAGUCUUAACGUUUAUCUUUGAAUGCUAUUUAUUCAAAUAGCGUGAGGAGUUAGAAGAUGAGGUG`, “RBNS enrichment (R)” read 0.334.

Excerpt of the above (set 3):
The log2 enrichment of `UGGCCCUGGUGGCAUGCGGGGAGGAAGAGGUGGCCUCAUGGAUCGUGGUGGUCCCGUUGGAAUGUUCAGAGGUGGCCGUGGUGGAGACAG` is reported as 0.479.
`CUGUGCUACACAUCGUAUGUACCGAAUCGGGGAAAGGGGUUUUUUUGGGGUUUUUUUGGGGAAAGUAUUAUGUUACGCCGUUCGGAUCUG` has a log2 enrichment of 0.0311.
`CUGUGCUACACAUCGUAUGUACCGAAUCGGCCCCCCCGGGGCCCCCCCGGGCCCCCCCGGGAAAGUAUUAUGUUACGCCGUUCGGAUCUG` gave a log2 enrichment of -1.2.
`GAGUCCGGUUCGUGUUCGUCCGCGGAGAUCUCUCUCAUCUCGCUCGGCUGCGGGAAAUCGGGCUGAAGCGACUGAGUCCGCGAUGGAGGU` has a log2 enrichment of -1.04.
With `CACAGACAACACGCACCCACACAGACACAGAGGGAAGGGGUUGGGAUGGGGACAGUGUGCACAGCAGGGCGGGGUAGGACCCCAGCCCCU` the log2 enrichment was -0.305.
The log2 enrichment of `UGGCCCUGGUGGCAUGCGGGGAGUAAGAGGUGGCCUCAUGGAUCGUGGUGGUCCCGGUGGAAUGUUCAGAGGUGGCCGUGGUGGAGACAG` is reported as 0.487.
